Measurements from different studies.
Compare with care: the assays were run in different laboratories. Values joined by “and” are separate records of one study, mostly repeats; a detail may differ.
Cell line: EKVX

The growth percent of `CCCN1CCN(c2ccc3nc(-c4ccc5nc(-c6cc(OC)ccc6OC)[nH]c5c4)[nH]c3c2)CC1` is reported as 96.7% (SRB; 10 µM, 48 h).
The cell growth of `Cc1cc(=O)[nH]n1-c1nc(-c2ccc(Cl)cc2)c2c(NC(=O)c3ccccc3)nnc-2[nH]1` is reported as 98.5% (SRB; 10 µM, NCI60 single-dose screen; relative to: untreated).
`O=c1ccn(Cc2cn(-c3c4ccccc4nc4ccccc34)nn2)c(=O)[nH]1` gave a growth percentage of 103% (NCI60 single-dose screen; 10 µM).
`CSc1nc(-c2ccc(Cl)cc2)c2c(NC(=O)c3ccccc3)nnc-2[nH]1` gave a cell growth of 93.3% (SRB; 10 µM, NCI60 single-dose screen; relative to: untreated).
`O=C1NC(c2ccccc2)(c2ccccc2)C(=O)N1Cc1cn(-c2cc3ccccc3oc2=O)nn1` gave a growth percentage of 78.9% (NCI60 single-dose screen; 10 µM).
For `COc1ccc(OC)c(-c2nc3ccc(-c4nc5ccc(N6CCN(C)CC6)cc5[nH]4)cc3[nH]2)c1`, the growth percent was 115% (SRB; 10 µM, 48 h).
The growth inhibition of `CCCCCCCCCCCCCCCCCCOc1ccc(CC(=O)OCC[N+]2(C)CCOCC2)cc1` is reported as less than 0% (SRB; 10 µM).
The cell growth of `Cc1cc(C)n(-c2nc(-c3ccc(Cl)cc3)c3c(NC(=O)c4ccccc4)nnc-3[nH]2)n1` is reported as 93.9% (SRB; 10 µM, NCI60 single-dose screen; relative to: untreated).
`C#C[C@@]1(O)[C@@H](CO)O[C@@H](n2ccc3c(N)ncnc32)[C@@H]1O` has a TGI of 5.43 µM (SRB; NCI-60 screen).
With `CCCCCCCCCCCCCCCCCCOc1ccc(CC(=O)OCC[N+](C)(C)C)cc1` the growth inhibition was less than 0% (SRB; 10 µM).
With `C#C[C@@]1(O)[C@@H](CO)O[C@@H](n2cc(Cl)c3c(N)ncnc32)[C@@H]1O` the TGI was 2.46 µM and 2.41 µM (SRB; NCI-60 screen).
With `Cc1cc(C)n(C(=S)[S][Au][PH](CCCCCC[PH]([Au][S]C(=S)n2nc(C)cc2C)(c2ccccc2)c2ccccc2)(c2ccccc2)c2ccccc2)n1` the log10 TGI was greater than -4 (cell growth, NCI-60 screen; non-small cell lung cancer).
`Cc1cc(=O)[nH]c(=O)n1Cc1cn(-c2c3ccccc3nc3ccccc23)nn1` gave a growth percentage of 103% (NCI60 single-dose screen; 10 µM).
With `Cc1n[nH]c2nc(-c3ccc(Cl)cc3)c3c(NC(=O)c4ccccc4)nnc-3n12` the cell growth was 102% (SRB; 10 µM, NCI60 single-dose screen; relative to: untreated).
`CCCN1CCN(c2ccc3[nH]c(-c4ccc5[nH]c(-c6ccc(OCC)c(OCC)c6)nc5c4)nc3c2)CC1` has a growth percent of -3.15% (SRB; 10 µM, 48 h).
The GI50 of `Cn1cncc1C1=CN(c2ncnc3[nH]cnc23)CCS1` is reported as 27.5 µM (lung cancer).
For `CN1CCN(c2ccc3[nH]c(-c4ccc5[nH]c(-c6ccc(C(F)(F)F)cc6)nc5c4)nc3c2)CC1`, the growth percent was 81.6% (SRB; 10 µM, 48 h).
With `O=C(Nc1nnc2n3c(=S)[nH][nH]c3nc(-c3ccc(Cl)cc3)c1-2)c1ccccc1` the cell growth was 98.4% (SRB; 10 µM, NCI60 single-dose screen; relative to: untreated).
With `CCCCN1CCN(c2ccc3[nH]c(-c4ccc5[nH]c(-c6cc(OC)c(OC)c(OC)c6)nc5c4)nc3c2)CC1` the growth percent was 106% (SRB; 10 µM, 48 h).
With `CCCCCCCCCCCCCCCCCCOCC(COP(=O)([O-])OCC[N+](C)(C)C)OC` (stereo not shown) the growth inhibition was less than 0% (SRB; 10 µM).
`O=C1NC(c2ccccc2)(c2ccccc2)C(=O)N1Cc1cn(-c2c3ccccc3nc3ccccc23)nn1` gave a growth percentage of 80.4% (NCI60 single-dose screen; 10 µM).
`CCCCN1CCN(c2ccc3nc(-c4ccc5nc(-c6cc(OC)ccc6OC)[nH]c5c4)[nH]c3c2)CC1` gave a growth percent of 97% (SRB; 10 µM, 48 h).

Excerpt of the above:
The cell growth of `Cc1cc(=O)[nH]n1-c1nc(-c2ccc(Cl)cc2)c2c(NC(=O)c3ccccc3)nnc-2[nH]1` is reported as 98.5% (SRB; 10 µM, NCI60 single-dose screen; relative to: untreated).
